# Assay results gathered from unrelated publications.
# Parts stem from different laboratories: compare values within a part only.
# UniProt P06241, sequence (whole entry, looked up): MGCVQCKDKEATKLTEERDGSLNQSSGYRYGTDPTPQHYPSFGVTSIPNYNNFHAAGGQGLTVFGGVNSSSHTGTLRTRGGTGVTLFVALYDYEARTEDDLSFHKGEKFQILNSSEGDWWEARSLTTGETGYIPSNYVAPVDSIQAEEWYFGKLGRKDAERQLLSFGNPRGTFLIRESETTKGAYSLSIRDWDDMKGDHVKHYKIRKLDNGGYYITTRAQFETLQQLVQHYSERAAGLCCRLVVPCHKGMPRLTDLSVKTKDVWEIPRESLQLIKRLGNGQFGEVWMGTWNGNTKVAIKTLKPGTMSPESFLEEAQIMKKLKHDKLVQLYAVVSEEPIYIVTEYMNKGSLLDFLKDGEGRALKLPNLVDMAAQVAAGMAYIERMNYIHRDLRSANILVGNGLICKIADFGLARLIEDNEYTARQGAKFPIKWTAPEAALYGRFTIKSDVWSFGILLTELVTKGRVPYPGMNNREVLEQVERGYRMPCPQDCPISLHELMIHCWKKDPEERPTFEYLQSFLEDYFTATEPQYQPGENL
# UniProt P48736, sequence (whole entry, looked up): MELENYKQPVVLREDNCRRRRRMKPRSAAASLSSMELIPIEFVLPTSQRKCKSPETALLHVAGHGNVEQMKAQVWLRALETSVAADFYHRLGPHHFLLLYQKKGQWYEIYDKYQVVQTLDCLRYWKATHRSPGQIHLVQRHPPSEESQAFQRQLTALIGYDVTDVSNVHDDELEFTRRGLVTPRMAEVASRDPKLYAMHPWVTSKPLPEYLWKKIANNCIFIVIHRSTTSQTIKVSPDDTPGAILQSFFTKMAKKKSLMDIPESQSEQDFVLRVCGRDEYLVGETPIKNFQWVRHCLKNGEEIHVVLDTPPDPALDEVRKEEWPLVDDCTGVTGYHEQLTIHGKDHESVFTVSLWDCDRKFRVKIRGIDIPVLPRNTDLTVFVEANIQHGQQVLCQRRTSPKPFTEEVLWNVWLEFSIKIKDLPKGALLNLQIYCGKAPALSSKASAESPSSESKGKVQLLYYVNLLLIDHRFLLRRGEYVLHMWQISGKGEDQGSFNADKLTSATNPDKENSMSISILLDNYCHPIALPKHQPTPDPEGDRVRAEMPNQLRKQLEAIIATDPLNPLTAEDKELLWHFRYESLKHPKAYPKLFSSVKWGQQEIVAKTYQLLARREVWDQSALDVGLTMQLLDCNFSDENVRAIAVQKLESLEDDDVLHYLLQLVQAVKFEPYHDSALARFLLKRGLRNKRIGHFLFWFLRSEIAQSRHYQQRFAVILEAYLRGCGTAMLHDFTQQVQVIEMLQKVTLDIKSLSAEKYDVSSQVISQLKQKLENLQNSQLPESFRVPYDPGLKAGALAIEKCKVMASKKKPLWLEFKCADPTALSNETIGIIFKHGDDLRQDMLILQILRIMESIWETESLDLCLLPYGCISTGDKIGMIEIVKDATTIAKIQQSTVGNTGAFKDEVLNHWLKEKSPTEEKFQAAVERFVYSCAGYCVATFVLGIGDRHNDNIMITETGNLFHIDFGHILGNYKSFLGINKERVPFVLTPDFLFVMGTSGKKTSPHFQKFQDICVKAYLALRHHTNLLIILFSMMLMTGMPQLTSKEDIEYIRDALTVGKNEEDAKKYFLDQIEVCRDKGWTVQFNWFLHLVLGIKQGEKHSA
# UniProt Q8N4C8, sequence (whole entry, looked up): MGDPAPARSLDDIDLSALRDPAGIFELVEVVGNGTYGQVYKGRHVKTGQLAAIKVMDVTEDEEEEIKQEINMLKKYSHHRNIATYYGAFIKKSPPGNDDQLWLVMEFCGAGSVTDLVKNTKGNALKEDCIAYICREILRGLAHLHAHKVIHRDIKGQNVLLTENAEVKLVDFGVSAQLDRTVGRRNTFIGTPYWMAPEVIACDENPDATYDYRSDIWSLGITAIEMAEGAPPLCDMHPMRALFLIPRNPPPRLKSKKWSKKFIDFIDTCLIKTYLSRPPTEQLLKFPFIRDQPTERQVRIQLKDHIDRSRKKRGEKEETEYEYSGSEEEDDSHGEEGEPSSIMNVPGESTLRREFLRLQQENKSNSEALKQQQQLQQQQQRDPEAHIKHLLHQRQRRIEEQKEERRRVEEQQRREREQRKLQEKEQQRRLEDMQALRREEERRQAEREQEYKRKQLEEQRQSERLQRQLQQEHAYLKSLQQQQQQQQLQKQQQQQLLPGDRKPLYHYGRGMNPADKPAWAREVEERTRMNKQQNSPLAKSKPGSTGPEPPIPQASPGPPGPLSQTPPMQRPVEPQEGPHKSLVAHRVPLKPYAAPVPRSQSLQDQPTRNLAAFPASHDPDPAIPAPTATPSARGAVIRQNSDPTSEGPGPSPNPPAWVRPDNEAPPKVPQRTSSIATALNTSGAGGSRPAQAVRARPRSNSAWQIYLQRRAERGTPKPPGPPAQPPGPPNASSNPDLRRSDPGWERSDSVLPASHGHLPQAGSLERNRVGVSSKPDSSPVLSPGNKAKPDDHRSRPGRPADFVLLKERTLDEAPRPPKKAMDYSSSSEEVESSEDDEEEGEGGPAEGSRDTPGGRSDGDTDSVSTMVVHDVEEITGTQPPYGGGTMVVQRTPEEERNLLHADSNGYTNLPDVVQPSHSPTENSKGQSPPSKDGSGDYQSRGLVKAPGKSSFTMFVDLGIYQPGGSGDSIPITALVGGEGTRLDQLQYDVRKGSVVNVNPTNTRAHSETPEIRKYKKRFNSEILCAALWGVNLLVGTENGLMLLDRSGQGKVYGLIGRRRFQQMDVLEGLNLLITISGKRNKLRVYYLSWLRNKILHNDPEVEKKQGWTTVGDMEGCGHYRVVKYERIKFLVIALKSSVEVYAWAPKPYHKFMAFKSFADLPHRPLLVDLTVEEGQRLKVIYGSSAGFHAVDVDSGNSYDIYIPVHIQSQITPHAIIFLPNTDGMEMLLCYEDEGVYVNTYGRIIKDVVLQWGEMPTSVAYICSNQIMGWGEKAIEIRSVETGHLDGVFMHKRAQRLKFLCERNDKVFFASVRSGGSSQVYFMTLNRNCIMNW
# UniProt P06239, sequence (whole entry, looked up): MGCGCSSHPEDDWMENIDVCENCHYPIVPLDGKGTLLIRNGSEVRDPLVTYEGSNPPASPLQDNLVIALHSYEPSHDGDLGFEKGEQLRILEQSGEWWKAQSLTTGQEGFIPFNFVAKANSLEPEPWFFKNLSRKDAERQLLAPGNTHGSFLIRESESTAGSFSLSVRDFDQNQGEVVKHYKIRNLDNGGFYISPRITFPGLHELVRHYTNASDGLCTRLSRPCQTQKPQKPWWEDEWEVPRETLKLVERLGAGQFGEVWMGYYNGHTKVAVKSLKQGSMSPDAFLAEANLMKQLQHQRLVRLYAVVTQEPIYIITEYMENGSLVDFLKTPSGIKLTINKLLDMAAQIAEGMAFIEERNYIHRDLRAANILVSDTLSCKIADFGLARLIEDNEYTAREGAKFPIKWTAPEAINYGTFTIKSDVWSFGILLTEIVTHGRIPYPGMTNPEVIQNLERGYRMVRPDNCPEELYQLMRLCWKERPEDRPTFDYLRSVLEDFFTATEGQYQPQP
# UniProt Q16816, sequence (whole entry, looked up): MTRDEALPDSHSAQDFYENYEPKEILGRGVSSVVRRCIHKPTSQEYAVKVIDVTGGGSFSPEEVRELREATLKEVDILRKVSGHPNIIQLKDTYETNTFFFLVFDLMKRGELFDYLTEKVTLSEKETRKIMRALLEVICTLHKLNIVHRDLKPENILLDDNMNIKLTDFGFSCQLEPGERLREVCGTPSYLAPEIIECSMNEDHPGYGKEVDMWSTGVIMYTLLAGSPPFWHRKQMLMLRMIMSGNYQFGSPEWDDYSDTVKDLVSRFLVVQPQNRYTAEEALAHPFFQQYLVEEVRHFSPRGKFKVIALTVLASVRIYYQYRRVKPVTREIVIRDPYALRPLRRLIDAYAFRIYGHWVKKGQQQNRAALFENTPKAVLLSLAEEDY

# Block 1 — observed: cell-free assay; method: competition with immobilised ligand; concentration: 1 µM
# Compound: CN([C@@H]1CCc2c(CC(=O)O)c3ccccc3n2C1)S(=O)(=O)c1ccc(F)cc1
target,remaining binding
"G protein-coupled receptor kinase 4 (GRK4, Homo sapiens, UniProt P32298)",100%
"Cyclin-dependent kinase 4, with cyclin D1 (CDK4, Homo sapiens, UniProt P11802)",99%
"Macrophage-stimulating protein receptor (MST1R, Homo sapiens, UniProt Q04912)",93%
"Phosphorylase b kinase gamma catalytic chain, skeletal muscle/heart isoform (PHKG1, Homo sapiens, UniProt Q16816)",100%
"Serine/threonine-protein kinase tousled-like 1 (TLK1, Homo sapiens, UniProt Q9UKI8)",100%
"Mitogen-activated protein kinase 13 (MAPK13, Homo sapiens, UniProt O15264)",91%
"Tyrosine-protein kinase Fyn (FYN, Homo sapiens, UniProt P06241)",77%
"RAC-gamma serine/threonine-protein kinase (AKT3, Homo sapiens, UniProt Q9Y243)",100%
"Proto-oncogene tyrosine-protein kinase receptor Ret (RET, Homo sapiens, UniProt P07949, V804L)",99%
"Tyrosine-protein kinase receptor Tie-1 (TIE1, Homo sapiens, UniProt P35590)",89%
"Tyrosine-protein kinase Lck (LCK, Homo sapiens, UniProt P06239)",100%
"Proto-oncogene tyrosine-protein kinase ROS (ROS1, Homo sapiens, UniProt P08922)",100%
"Mitogen-activated protein kinase kinase kinase 10 (MAP3K10, Homo sapiens, UniProt Q02779)",100%
"Serine/threonine-protein kinase Nek9 (NEK9, Homo sapiens, UniProt Q8TD19)",100%
"Fibroblast growth factor receptor 3 (FGFR3, Homo sapiens, UniProt P22607, G697C)",100%
"Phosphatidylinositol 4,5-bisphosphate 3-kinase catalytic subunit gamma isoform (PIK3CG, Homo sapiens, UniProt P48736)",100%
"Serine/threonine-protein kinase SIK3 (SIK3, Homo sapiens, UniProt Q9Y2K2)",98%
"High affinity nerve growth factor receptor (NTRK1, Homo sapiens, UniProt P04629)",100%
"3-phosphoinositide-dependent protein kinase 1 (PDPK1, Homo sapiens, UniProt O15530)",100%
"Serine/threonine-protein kinase RIO2 (RIOK2, Homo sapiens, UniProt Q9BVS4)",90%
"Non-receptor tyrosine-protein kinase TYK2, JH2 (TYK2, Homo sapiens, UniProt P29597)",100%
"Serine/threonine-protein kinase OSR1 (OXSR1, Homo sapiens, UniProt O95747)",100%
"Ephrin type-A receptor 6 (EPHA6, Homo sapiens, UniProt Q9UF33)",91%
"Misshapen-like kinase 1 (MINK1, Homo sapiens, UniProt Q8N4C8)",100%
"Mitogen-activated protein kinase 12 (MAPK12, Homo sapiens, UniProt P53778)",94%

# Block 2 — observed: enzyme activity; action: inhibitor; concentration: 0.5 µM; reference: control
# Target: Macrophage colony-stimulating factor 1 receptor (CSF1R, Homo sapiens, UniProt P07333)
# UniProt P07333, sequence (whole entry, looked up): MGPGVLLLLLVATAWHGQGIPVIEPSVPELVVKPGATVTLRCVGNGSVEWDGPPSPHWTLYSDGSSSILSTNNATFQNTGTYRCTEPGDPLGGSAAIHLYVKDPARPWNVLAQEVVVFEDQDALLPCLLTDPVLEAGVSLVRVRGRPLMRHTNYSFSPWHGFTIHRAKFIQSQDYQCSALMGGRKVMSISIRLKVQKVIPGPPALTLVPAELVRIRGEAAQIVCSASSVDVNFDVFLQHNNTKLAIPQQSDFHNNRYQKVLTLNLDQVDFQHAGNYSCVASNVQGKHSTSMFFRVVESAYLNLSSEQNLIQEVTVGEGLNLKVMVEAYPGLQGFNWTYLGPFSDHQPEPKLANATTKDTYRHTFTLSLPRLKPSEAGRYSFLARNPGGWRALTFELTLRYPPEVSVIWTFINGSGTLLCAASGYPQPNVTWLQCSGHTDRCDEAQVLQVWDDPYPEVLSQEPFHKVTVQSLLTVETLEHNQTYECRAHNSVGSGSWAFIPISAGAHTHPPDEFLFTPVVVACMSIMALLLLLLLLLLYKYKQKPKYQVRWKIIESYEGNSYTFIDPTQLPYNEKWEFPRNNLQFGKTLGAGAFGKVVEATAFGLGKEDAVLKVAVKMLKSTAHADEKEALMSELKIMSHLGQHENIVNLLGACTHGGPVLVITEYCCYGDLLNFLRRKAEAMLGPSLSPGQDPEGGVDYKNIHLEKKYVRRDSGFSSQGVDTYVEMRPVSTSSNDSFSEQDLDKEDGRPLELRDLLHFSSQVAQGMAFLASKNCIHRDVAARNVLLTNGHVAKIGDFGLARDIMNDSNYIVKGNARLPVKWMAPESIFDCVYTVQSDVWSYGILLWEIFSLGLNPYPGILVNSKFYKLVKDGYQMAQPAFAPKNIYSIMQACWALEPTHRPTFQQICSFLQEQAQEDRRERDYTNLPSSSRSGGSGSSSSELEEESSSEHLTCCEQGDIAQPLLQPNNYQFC
Compound,remaining activity [%]
OCC(O)CCON=C1C(c2c(O)[nH]c3ccccc23)=Nc2ccccc21 (stereo not shown),21.1
C#Cc1cccc(Nc2ncnc3cc(OCCOC)c(OCCOC)cc23)c1,106
O=C1NC(=O)C(c2cn(CCCn3ccnc3)c3ccccc23)=C1Nc1ccccc1,97.5
COc1ccc(C(=O)Nc2sc3c(c2C(N)=O)CCCC3)cc1OC,90.2
Nc1[nH]nc2nc3ccccc3nc12,95.3
COc1cc2ncnc(Nc3ccc(Oc4ccccc4)cc3)c2cc1OC,100
CN(C)c1ccc(C=C2C(=O)Nc3ccccc32)cc1,77.5
CCOC(=O)c1c(C)[nH]c(/C=C2\C(=O)Nc3ccccc32)c1C,52.5
CC(C)[C@H](CO)Nc1nc(Nc2cc(N)cc(Cl)c2)c2ncn(C(C)C)c2n1,71.1
COc1cc2nccc(Oc3ccc(NC(=S)NC(=O)c4ccccc4C)cc3)c2cc1OC,10.5
Cc1ccc(NC(=O)c2ccc(CN3CCN(C)CC3)cc2)cc1Nc1nc(-c2cccnc2)cs1,8.38
Cn1c2ccccc2c2c3c(c4c5ccccc5n(CCC#N)c4c21)CNC3=O,84.1
O=C1NC(=O)C(c2cn(CCCO)c3ncccc23)=C1c1cnccn1,98.4
O=c1c2ccccc2[nH]c(=S)n1CCN1CCC(=C(c2ccc(F)cc2)c2ccc(F)cc2)CC1,102

# Block 3 — cell line: A-375; concentration: 100 µM; time: 18 h
Compound,viability [%]
Cc1cn[nH]c1,90.3
CN/C(=N/CCSCc1nc[nH]c1C)NC#N,90.4
CN(C)/N=N/c1[nH]cnc1C(N)=O,77.5
O=c1[nH]cnc2c1ncn2[C@H]1CC[C@@H](CO)O1,104
NC(=O)c1cnccn1,98
CC(C)[C@H](N)C(=O)OCCOCn1cnc2c(=O)[nH]c(N)nc21,94.9
O=C(O)c1ccccc1O,105
Cn1c(=O)c2c(ncn2CC2OCCO2)n(C)c1=O,107
CN(C)CC(c1ccc(O)cc1)C1(O)CCCCC1 (stereo not shown),92.8
CCOC(=O)C1=C[C@@H](OC(CC)CC)[C@H](NC(C)=O)[C@@H](N)C1,101
CC[C@@H]([C@H](C)O)n1ncn(-c2ccc(N3CCN(c4ccc(OC[C@@H]5CO[C@@](Cn6cncn6)(c6ccc(F)cc6F)C5)cc4)CC3)cc2)c1=O,63.9
Nc1nc(NC2CC2)c2ncn([C@H]3C=C[C@@H](CO)C3)c2n1,104
CC1(C)C[C@@H]1C(=O)N/C(=C\CCCCSC[C@H](N)C(=O)O)C(=O)O,107

# Block 4 — organism: Sarcocystis neurona; observed: parasite growth; concentration: 10 µM; time: 96 h; notes: second screen; reference: untreated
Structure (SMILES),log2 fold change
Nc1ccc(S(=O)(=O)c2ccc(N)cc2)cc1,0.31
CC(C)(C)NCC(O)COc1cccc2c1CC(O)C(O)C2 (stereo not shown),0.31
NNC(=O)c1ccncc1,0.34
CN(C)CCCSc1ccccc1NC(=O)/C=C/c1ccccc1,0.45
CN(C)CCc1c[nH]c2ccc(Cn3cncn3)cc12,0.35
CC(N)C12CC3CC(CC(C3)C1)C2 (stereo not shown),0.31
c1ccc(CC2=NCCN2)cc1,0.34
COc1ccc([C@@H]2Sc3ccccc3N(CCN(C)C)C(=O)[C@@H]2OC(C)=O)cc1,-0.13
CC(C(=O)O)c1cccc(C(=O)c2ccccc2)c1 (stereo not shown),0.46
Nc1nnc(-c2cccc(Cl)c2Cl)c(N)n1,0.41
CCOc1cc(N)c(Cl)cc1C(=O)NCC1CN(Cc2ccc(F)cc2)CCO1 (stereo not shown),-1.56
N#Cc1ccc(C(c2ccc(C#N)cc2)n2cncn2)cc1,0.49
Cc1ccc(S(=O)(=O)NC(=O)NN2CCCCCC2)cc1,0.23
CC1(C)O[C@@H]2[C@@H](CO[C@@]3(COS(N)(=O)=O)OC(C)(C)O[C@@H]23)O1,0.29
CCCC(CCC)C(=O)O,0.22

# For quick reference, copied from above (block 1):
target,remaining binding
"G protein-coupled receptor kinase 4 (GRK4, Homo sapiens, UniProt P32298)",100%
"Mitogen-activated protein kinase 13 (MAPK13, Homo sapiens, UniProt O15264)",91%
"Phosphorylase b kinase gamma catalytic chain, skeletal muscle/heart isoform (PHKG1, Homo sapiens, UniProt Q16816)",100%
"Mitogen-activated protein kinase 12 (MAPK12, Homo sapiens, UniProt P53778)",94%
"Mitogen-activated protein kinase kinase kinase 10 (MAP3K10, Homo sapiens, UniProt Q02779)",100%
"RAC-gamma serine/threonine-protein kinase (AKT3, Homo sapiens, UniProt Q9Y243)",100%
"Macrophage-stimulating protein receptor (MST1R, Homo sapiens, UniProt Q04912)",93%
"Fibroblast growth factor receptor 3 (FGFR3, Homo sapiens, UniProt P22607, G697C)",100%
"Proto-oncogene tyrosine-protein kinase receptor Ret (RET, Homo sapiens, UniProt P07949, V804L)",99%
"Phosphatidylinositol 4,5-bisphosphate 3-kinase catalytic subunit gamma isoform (PIK3CG, Homo sapiens, UniProt P48736)",100%
